Assay results from different studies.
Compare with care: the assays were run in different laboratories. ± marks the error that the study gave.

Structure (SMILES) | test | test system | conditions | scale | quantity | result
O=C(O)CCC(CP(=O)(O)O)C(=O)O (stereo not drawn) |  | rat plasma | 0.3 µg/mL, freeze-thaw cycle 3 at -80 °C |  | measured concentration | 0.355 ± 0.009 µg/mL
O=[N+]([O-])c1ccc2c(c1)S(=O)(=O)C=C2 |  | male C57BL/6 mice, blood | intraperitoneal, 20 mg/kg, day 8, group average |  | plateletcrit | 5.44 mL/L
CC(C)[C@@H]1NC(=O)CNC(=O)[C@H](CC(N)=O)NC(=O)[C@H](CCCNC(=N)N)NC(=O)[C@H](Cc2ccc(O)cc2)NC(=O)[C@H](C(C)C)NC(=O)[C@@H](NC(=O)[C@@H](NC(=O)[C@H](CC(N)=O)NC(=O)[C@H](Cc2c[nH]c3ccccc23)NC(=O)[C@H](C)NC(=O)[C@H](Cc2ccccc2)NC(=O)CN)C(C)C)CSSC[C@@H](C(=O)N[C@@H](Cc2cnc[nH]2)C(=O)N[C@@H](CCCNC(=N)N)C(=O)N[C@@H](CCCNC(=N)N)C(=O)N[C@@H](C)C(=O)N[C@@H](CC(N)=O)C(N)=O)NC(=O)[C@H](C(C)C)NC(=O)[C@H](CCCNC(=N)N)NC1=O |  | ICR mice, blood | intraperitoneal, 5 mg/kg, day 5 |  | plateletcrit | 0.02 ± 0.01%
O=S(=O)(Nc1ccccc1)c1ccc(NC(=S)Nc2ccccc2)cc1 |  | male mice, thymus | oral, 80 mg/kg daily 14 days | reference: body weight | relative organ weight | 0.26%
Cn1cc(-c2nc(N[C@@H]3CCCC[C@@H]3N)c(F)c3c2C(=O)NC3)cn1 | any bleeding | patients with relapsed or refractory AML | oral, 120 mg once daily |  | adverse events | 50%
C[C@]1(CO)Cc2ncn(-c3ccc(C#N)c(Cl)c3)c2C(=O)O1 |  | healthy humans | oral, 10 mg | reference: fasted | Cmax ratio fed over fasted | 77.5%
Nc1nc2cc(-c3ccc4ncc(C(=O)N5CCOCC5)n4c3)ccc2o1 |  | human, advanced solid tumours | 100–300 mg once daily |  | respiratory failure adverse events | 4%
CCc1ccc(CC/C=C/c2ccc3c(c2)C(=O)CC3)cc1 |  | Sprague-Dawley rat, female | oral, 120 mg/kg/day, 14 days |  | ALP serum activity | 92 U/L
C[C@H](NC(=O)c1c(C(F)F)nn(C)c1Oc1cccc(C(F)(F)F)c1)c1ccc(C(=O)O)cc1 |  | human, plasma | 125 mg, cycle 1 day 8, mean |  | half-life | 11.1 h
Cn1c(-c2ccc(C(N)=O)cc2F)nnc1C(C)(C)Oc1c(F)cc(Cl)cc1F |  | human | oral, 6 mg, single ascending dose |  | subjects with any TEAE | 50%
[Cl][212Pb][Cl] |  | athymic mice, C4-2 xenograft, small intestine | intravenous, 2 h, 212Pb-labelled |  | tissue uptake | 2.99 ± 0.47 %ID/g
COc1cc2c(Oc3ccc4[nH]c(C)cc4c3F)ccnc2cc1OCC1(N)CC1 |  | paediatric recurrent refractory sarcoma | 8 mg/kg |  | grade 1 or 2 Hematochezia | 6.7%
COc1ncccc1-c1cnn2ccc(N3CCN(C(=O)OC(C)C)CC3)nc12 |  | rat, STZ model, plasma | oral, 30 mg/kg, 240 min |  | free drug concentration | 423 nM
C[C@H]1COCCN1c1nc(NCc2cccnc2C(F)(F)F)c2cccnc2n1 |  | anaesthetized rat | intravenous, 3 mg/kg | reference: control | heart rate change | -4.9%
COc1ccc2nc3cc(Cl)ccc3c(Nc3cc(CN4CCCC4)c(O)c(CN4CCCC4)c3)c2n1 |  | mouse, blood | intraperitoneal, 28 mg/kg |  | red blood cell count | 9.88 10¹²/L
CC(=O)c1c(C)c2cnc(Nc3ccc(C4CCN(CCS(C)(=O)=O)CC4)cn3)nc2n(C2CCCC2)c1=O |  | human, dose-escalation trial, plasma | oral, 100 mg twice daily, day 21, multiple doses |  | clearance | 1160 mL/min
C[C@@H](NC(=O)N1C(=O)[C@H](Cc2ccnc(N)c2)[C@H]1C(=O)O)C1CCCCC1 |  | healthy adult Chinese volunteers | continuous intravenous infusion, 0.3 mg/kg/h, 5-day infusion, CTCAE 5.0 grading |  | incidence of urine occult blood positive | 12.5%
CO[C@H]1C[C@@H]2CC[C@@H](C)[C@@](O)(O2)C(=O)C(=O)N2CCCC[C@H]2C(=O)O[C@H]([C@H](C)C[C@@H]2CC[C@@H](OC(=O)NCCOCCOCCOCCOCCOCCOCCOCCOCCC(=O)N3CCc4cc(Cn5nc(-c6ccc7oc(N)nc7c6)c6c(N)ncnc65)ccc4C3)[C@H](OC)C2)C[C@@H](O)[C@H](C)/C=C(\C)[C@@H](O)[C@@H](OC)C(=O)[C@H](C)C[C@H](C)/C=C/C=C/C=C/1C | phase 1 dose escalation | advanced solid tumour patients | intravenous, 6 mg weekly, grade ≥3 |  | deaths due to TEAEs | 0%

Structure (SMILES) | test | test system | conditions | scale | quantity | result
O=c1ccc2ncc(=O)n3c2n1C[C@H]3CN1CCC(NCc2cc3c(cn2)OCCC3)CC1 |  | healthy human volunteers | oral, 1500 mg, rifampicin cohort, added: rifampicin 600 mg |  | incidence of ALT increased | 0%
CNC(=O)c1cc(Oc2ccc(NC(=O)Nc3cc(C(C)(C)C)nn3-c3ccc4ncccc4c3)c(F)c2)ccn1 | intraocular pressure increased, NCI CTC v3.0 | human patients | oral, all dose levels |  | related SAE | 2%
CC1(C)C(C=C(Cl)Cl)C1C(=O)OC(C#N)c1ccc(F)c(Oc2ccccc2)c1 (stereo not drawn) | item: CYP2C9 | human, age 6 months, recombinant human CYP2C9 | 0.1 µM |  | enzyme contribution to clearance | 2.05%
CC(C)n1c(C2CCNCC2)nc2c([N+](=O)[O-])c(Br)c(Br)cc21 |  | patients with AML | 125 mg, septic shock |  | AE leading to discontinuation | 2%
CC(C)(O)c1cc(Nc2cc(Oc3cn(C4CC4)nc3C3CCOCC3)ccn2)ccn1 | Nausea | patients with advanced cancer, grade 4 glioma expansion | oral, 50 mg twice daily, grade ≥3, 2 weeks on/2 weeks off schedule |  | treatment-related adverse events | 3%
Cc1cccc(Cn2nc(C3CC3)c3c(NC(=O)c4cnc5cc(OCCN6CCN(C)CC6)ccn45)cccc32)n1 | item: Nausea | human pancreatic ductal adenocarcinoma | oral, dose not given, all-causality |  | adverse events incidence | 48.1%
C=CC(=O)Nc1cc(Nc2nccc(Nc3cc(Cl)c(F)cc3C(C)(C)O)n2)c(OC)cc1N1CC[C@@H](N(C)C)C1 |  | human patients | oral, 400 mg, treatment-emergent adverse events |  | patients with diarrhoea | 85%
CC(C)(c1ccccc1)c1cc(-n2nc3ccccc3n2)c(O)c(C(C)(C)c2ccccc2)c1 |  | human aged 11-16 years | concentration not given, sunscreen, 95th percentile |  | daily dermal exposure dose | 1.43 ng/kg/day
CN1CCN(S(=O)(=O)c2cc([N+](=O)[O-])ccc2N(CCOS(C)(=O)=O)CCOS(C)(=O)=O)CC1 |  | naive NOD/SCID mice, pooled blood | intraperitoneal, 12.5 mg/kg, week 4 |  | calcium | 2.6 mmol/L
[O-][S+]1CCc2nc(N3CCC(c4ncc(Cl)cn4)CC3)nc(NC3(CO)CCC3)c21 (stereo not drawn) | item: Headache | healthy male humans | 6 mg twice daily |  | adverse event incidence | 25%
CCC[C@@](N)(CO)CCc1ccc(OCCCCCC(C)C)cc1 |  | hound dogs, male | intravenous, 1.0 mg/kg, median |  | Tmax | 2.5 h
CCc1nc(C(N)=O)c(Nc2ccc(N3CCC(N4CCN(C)CC4)CC3)c(OC)c2)nc1NC1CCOCC1 |  | human, plasma | oral, 450 mg once daily, cycle 1 day 15 |  | Cmin | 1170 ng/mL
S=c1oc(-c2ccccc2)nn1CN1CCN(Cc2ccccc2)CC1 |  | Wistar rat female | oral, 500 mg/kg, acute toxicity OECD 423 |  | serum ALT | 41 ± 3.3 U/L
O=C(Nc1ccccc1)C1CCN(C(=O)Oc2cccnc2)CC1 | Bond-Lader VAS | healthy women | 60 mg | reference: pre-dose baseline, direction not given | change in Calm-excited score | -15
O=c1ccc2ccccc2o1 | calculated from % plasma protein binding | human |  |  | fraction unbound in plasma | 0.31
Cn1cncc1-c1c(F)cncc1NC(=O)c1c(N)nn2cc(F)cnc12 |  | human patients | oral, 180 mg once daily |  | grade ≥3 neutrophil decrease incidence | 0%
CCCCCCCCCCCCCCCC(=O)N[C@@H](CCC(=O)NCCCC[C@H](NC(=O)[C@H](CC(=O)O)NC(=O)[C@H](CO)NC(=O)[C@@H](NC(=O)[C@H](Cc1ccccc1)NC(=O)[C@@H](NC(=O)CNC(=O)[C@H](CCC(N)=O)NC(=O)[C@H](CO)NC(=O)[C@@H](N)Cc1c[nH]cn1)[C@@H](C)O)[C@@H](C)O)C(=O)N[C@@H](CO)C(=O)N[C@@H](CCC(=O)O)C(=O)N[C@@H](Cc1ccc(O)cc1)C(=O)N[C@@H](CC(C)C)C(=O)N[C@@H](CC(=O)O)C(=O)N[C@@H](CO)C(=O)N[C@@H](CCC(=O)O)C(=O)N[C@@H](CCCNC(=N)N)C(=O)N[C@@H](C)C(=O)N[C@@H](CCCNC(=N)N)C(=O)N[C@@H](CC(=O)O)C(=O)N[C@@H](Cc1ccccc1)C(=O)N[C@H](C(=O)N[C@@H](C)C(=O)N[C@@H](Cc1c[nH]c2ccccc12)C(=O)N[C@@H](CC(C)C)C(=O)N[C@@H](CCC(=O)O)C(=O)N[C@@H](C)C(=O)NCC(=O)NCC(=O)O)C(C)C)C(=O)O | item: Flatulence | humans CrCl below 20 mL/min | subcutaneous, 100 µg single dose |  | treatment-related adverse events | 0%
O=C(Nc1ccccc1)C1CCN(C(=O)Oc2cccnc2)CC1 | item: Malaise | healthy female human | concentration not given, all doses pooled |  | adverse event incidence | 0%
